Measured values pooled from the literature.
Compare with care: the assays were run in different laboratories. ± marks the error that the study gave.

| Molecule | tested on | assay | test system | setting | quantity | result |
| --- | --- | --- | --- | --- | --- | --- |
| O=c1[nH]c(=O)c2ncn(CC(CO)OCP(=O)(O)O)c2[nH]1 (racemic) | human cytomegalovirus | cytopathic effect | HEL, Davis | – | EC50 | 48.6 ± 24.2 µM |
| CCOC(=O)C1=C(CN2CCOCC2)NC(c2nccs2)=NC1c1ccc(F)cc1Br (stereo not drawn) | hepatitis B virus | viral replication, immunofluorescence, item: HBcAg | HBV-infected HepG2-NTCP cells | 7 days post-infection, dosed from 24 h pre-infection | EC50 | 0.153 ± 0.008 µM |
| COc1cc(/C=C2\CC/C(=C\c3ccc(O)c(OC)c3)C2=O)ccc1O | dengue virus 2 | viral replication | BHK-21 DENV2 replicon | 24 h | EC50 | 29.2 ± 4.46 µM |
| CCOC(=O)N[C@@H](CC(C)C)C(=O)N1CCC[C@H]1C(=O)Nc1ccc(C#CC#Cc2ccc(NC(=O)[C@@H]3CCCN3C(=O)[C@H](CC(C)C)NC(=O)OCC)cc2)cc1 | Hepatitis C virus | viral replication, inhibitor | Huh-5-2, GETYPE1B | replicon | EC50 | 4.3 µM |
| interferon alfa | hepatitis B virus | immunofluorescence, item: HBcAg | HBV-infected HepG2-NTCP | 7 days post-infection, dosed before, during, after | EC50 | 0.32 ± 0.067 µM |
| O=C(/C=C/c1ccc(O)cc1)c1ccc(Cl)cc1 | Plasmodium knowlesi | parasite growth | – | 24 h, blood stage | EC50 | 35.5 µM |
| CC1(C)[C@@H](O[C@H]2O[C@H](C(=O)O)[C@@H](O)[C@H](O)[C@H]2O[C@@H]2O[C@H](C(=O)O)[C@@H](O)[C@H](O)[C@H]2O)CC[C@]2(C)[C@H]3C(=O)C=C4[C@@H]5C[C@@](C)(C(=O)O)CC[C@]5(C)CC[C@@]4(C)[C@]3(C)CC[C@@H]12 | Epstein-Barr virus | EA/VCA antigen expression, indirect immunofluorescence | superinfected Raji cells | 24 h | EC50 | 38 µM |
| O=C(/C=C/c1ccc(O)c(CN2CCCCC2)c1)c1ccc(F)cc1 | Plasmodium knowlesi | parasite growth | – | 24 h, blood stage | EC50 | 21.1 µM |
| O=C(O)C(=O)O | cysteine peptide Ac-RFAACAA-COOH | peptide depletion, DPRA RapidFire-MS/MS | – | 24 h, pH 7.5, room temperature, added: 5.0 µM cysteine peptide | IC50 | inactive |
| O=C(/C=C/c1ccc(O)c(CN2CCOCC2)c1)c1ccc(F)cc1 | Plasmodium knowlesi | parasite growth | – | 24 h, blood stage | EC50 | 24.6 µM |
| NC(=O)c1ncn([C@@H]2O[C@H](CO)[C@@H](O)[C@H]2O)n1 | dengue virus 2 | viral infection, immunodetection | A549, TSV01 | 48 h | EC50 | 3 µM |
| O=C(/C=C/c1cccc(O)c1)c1ccc(F)cc1 | Plasmodium knowlesi | parasite growth | – | 24 h, blood stage | EC50 | 29 µM |
| CNC(=O)c1ccc(-c2cnn3ccc(C(=O)N(C[C@H]4CCC(=O)O4)c4ccc(OC(F)(F)F)cc4)cc23)cc1 | Cryptosporidium parvum | cytopathic effect | HCT-8 | 48 h | EC50 | 0.35 µM |
| N=C(N)N | Enterovirus A71 | cytopathic effect, inhibitor, neutral red uptake | RD cells, Tainan/4643/98 | 37 °C, no MgCl2 | EC50 | 305 ± 5 µM |
| CC(=O)C(C)=O | cysteine peptide Ac-RFAACAA-COOH | DPRA RapidFire-MS/MS | – | 24 h, pH 7.5, added: 5.0 µM cysteine peptide | maximal peptide depletion | -95.5% |
| O=C(/C=C/c1ccc(CN2CCCCC2)c(O)c1)c1ccc(F)cc1 | Plasmodium knowlesi | parasite growth | – | 24 h, blood stage | EC50 | 2.64 µM |
| CC(C)S(=O)(=O)n1c(N)nc2ccc(/C(=N/O)c3ccccc3)cc21 | Enterovirus A71 | cytopathic effect, neutral red uptake | RD, Tainan/4643/98 | 37 °C, no MgCl2 | EC50 | 1 ± 1.1 µM |
| C#CCNC(=O)C(=O)c1c(C)c(C(=O)Nc2ccc(F)c(F)c2)n(C)c1C | hepatitis B virus | viral replication, chemiluminescence immunoassay, item: secreted HBeAg | HBV-infected HepG2-NTCP cells | 7 days post-infection, dosed from 24 h pre-infection | EC50 | 0.872 ± 0.064 µM |

Excerpt of the above:
| Molecule | tested on | assay | test system | setting | quantity | result |
| --- | --- | --- | --- | --- | --- | --- |
| COc1cc(/C=C2\CC/C(=C\c3ccc(O)c(OC)c3)C2=O)ccc1O | dengue virus 2 | viral replication | BHK-21 DENV2 replicon | 24 h | EC50 | 29.2 ± 4.46 µM |
| CCOC(=O)N[C@@H](CC(C)C)C(=O)N1CCC[C@H]1C(=O)Nc1ccc(C#CC#Cc2ccc(NC(=O)[C@@H]3CCCN3C(=O)[C@H](CC(C)C)NC(=O)OCC)cc2)cc1 | Hepatitis C virus | viral replication, inhibitor | Huh-5-2, GETYPE1B | replicon | EC50 | 4.3 µM |
